Published values gathered from unrelated publications.
Every numbered part comes from another study and shows a few of its results, in no order. ± marks the error that the study gave.
Sequence of UniProt P08581 (whole entry, looked up): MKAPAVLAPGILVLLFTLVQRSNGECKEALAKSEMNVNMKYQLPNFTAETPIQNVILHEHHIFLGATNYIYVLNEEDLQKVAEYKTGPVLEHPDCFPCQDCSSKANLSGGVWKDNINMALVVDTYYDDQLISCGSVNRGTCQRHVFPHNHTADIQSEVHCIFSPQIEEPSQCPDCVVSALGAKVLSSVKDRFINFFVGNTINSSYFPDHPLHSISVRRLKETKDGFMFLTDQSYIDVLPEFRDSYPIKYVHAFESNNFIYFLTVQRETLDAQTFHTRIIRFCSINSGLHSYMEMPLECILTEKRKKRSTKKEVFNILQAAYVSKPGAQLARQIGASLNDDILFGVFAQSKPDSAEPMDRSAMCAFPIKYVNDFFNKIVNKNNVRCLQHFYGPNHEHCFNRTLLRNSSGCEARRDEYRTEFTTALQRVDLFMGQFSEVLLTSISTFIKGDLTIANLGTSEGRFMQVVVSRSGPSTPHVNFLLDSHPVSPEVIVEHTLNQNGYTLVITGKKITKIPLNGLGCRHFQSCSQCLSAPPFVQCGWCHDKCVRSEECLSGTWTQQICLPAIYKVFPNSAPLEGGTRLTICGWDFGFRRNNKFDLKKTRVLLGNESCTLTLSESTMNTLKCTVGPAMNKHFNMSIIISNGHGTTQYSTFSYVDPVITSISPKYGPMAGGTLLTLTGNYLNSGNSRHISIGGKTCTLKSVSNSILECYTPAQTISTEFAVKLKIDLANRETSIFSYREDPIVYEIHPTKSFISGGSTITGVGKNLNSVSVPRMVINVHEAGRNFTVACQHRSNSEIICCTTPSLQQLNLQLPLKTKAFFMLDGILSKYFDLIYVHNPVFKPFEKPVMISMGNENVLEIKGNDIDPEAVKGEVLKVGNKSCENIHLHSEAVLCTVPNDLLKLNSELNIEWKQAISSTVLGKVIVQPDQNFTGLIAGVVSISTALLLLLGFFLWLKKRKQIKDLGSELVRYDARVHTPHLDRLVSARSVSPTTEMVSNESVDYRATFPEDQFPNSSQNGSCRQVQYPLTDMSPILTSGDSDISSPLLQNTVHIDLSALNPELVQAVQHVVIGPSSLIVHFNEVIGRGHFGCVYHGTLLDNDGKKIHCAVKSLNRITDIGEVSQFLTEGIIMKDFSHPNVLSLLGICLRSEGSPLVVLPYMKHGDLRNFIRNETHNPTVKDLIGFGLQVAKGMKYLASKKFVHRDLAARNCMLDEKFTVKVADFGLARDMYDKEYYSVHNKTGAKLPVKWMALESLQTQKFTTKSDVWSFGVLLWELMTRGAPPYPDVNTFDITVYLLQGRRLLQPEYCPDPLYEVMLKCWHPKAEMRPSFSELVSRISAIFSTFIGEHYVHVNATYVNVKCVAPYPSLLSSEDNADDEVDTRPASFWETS
Sequence of UniProt P32298 (whole entry, looked up): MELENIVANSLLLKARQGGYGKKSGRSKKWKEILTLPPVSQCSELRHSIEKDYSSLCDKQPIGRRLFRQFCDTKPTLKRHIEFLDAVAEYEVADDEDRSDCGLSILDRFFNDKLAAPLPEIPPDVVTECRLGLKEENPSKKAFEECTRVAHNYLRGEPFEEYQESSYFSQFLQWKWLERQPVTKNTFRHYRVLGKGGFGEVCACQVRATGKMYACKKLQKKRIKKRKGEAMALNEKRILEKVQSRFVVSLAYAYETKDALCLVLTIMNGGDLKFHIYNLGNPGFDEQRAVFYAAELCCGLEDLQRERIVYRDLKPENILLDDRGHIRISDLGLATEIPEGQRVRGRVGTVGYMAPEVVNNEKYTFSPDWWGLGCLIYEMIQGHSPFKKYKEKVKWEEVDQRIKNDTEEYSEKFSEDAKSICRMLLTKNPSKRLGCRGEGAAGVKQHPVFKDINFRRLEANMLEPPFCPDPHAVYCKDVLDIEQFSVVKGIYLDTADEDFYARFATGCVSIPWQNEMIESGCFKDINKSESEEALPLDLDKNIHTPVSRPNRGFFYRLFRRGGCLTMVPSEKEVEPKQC
Sequence of UniProt Q15349 (whole entry, looked up): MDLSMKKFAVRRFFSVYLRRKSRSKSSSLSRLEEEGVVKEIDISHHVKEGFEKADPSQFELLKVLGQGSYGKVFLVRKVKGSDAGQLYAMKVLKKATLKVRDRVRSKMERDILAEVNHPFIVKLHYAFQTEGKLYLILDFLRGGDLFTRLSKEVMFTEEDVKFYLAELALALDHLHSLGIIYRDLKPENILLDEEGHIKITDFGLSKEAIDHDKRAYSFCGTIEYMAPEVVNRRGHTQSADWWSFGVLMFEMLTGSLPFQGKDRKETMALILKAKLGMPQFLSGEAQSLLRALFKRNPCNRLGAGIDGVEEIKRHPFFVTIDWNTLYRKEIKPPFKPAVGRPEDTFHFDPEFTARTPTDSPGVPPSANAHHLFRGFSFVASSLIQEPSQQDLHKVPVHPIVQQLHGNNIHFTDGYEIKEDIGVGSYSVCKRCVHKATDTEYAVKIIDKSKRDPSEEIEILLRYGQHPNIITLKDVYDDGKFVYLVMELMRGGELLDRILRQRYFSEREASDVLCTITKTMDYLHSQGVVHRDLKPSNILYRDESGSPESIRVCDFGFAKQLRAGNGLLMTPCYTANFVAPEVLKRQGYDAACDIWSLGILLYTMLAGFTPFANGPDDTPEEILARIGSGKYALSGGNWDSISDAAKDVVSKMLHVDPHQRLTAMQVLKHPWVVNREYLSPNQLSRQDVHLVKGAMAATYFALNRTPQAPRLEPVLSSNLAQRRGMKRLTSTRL
Sequence of UniProt Q8N4C8 (whole entry, looked up): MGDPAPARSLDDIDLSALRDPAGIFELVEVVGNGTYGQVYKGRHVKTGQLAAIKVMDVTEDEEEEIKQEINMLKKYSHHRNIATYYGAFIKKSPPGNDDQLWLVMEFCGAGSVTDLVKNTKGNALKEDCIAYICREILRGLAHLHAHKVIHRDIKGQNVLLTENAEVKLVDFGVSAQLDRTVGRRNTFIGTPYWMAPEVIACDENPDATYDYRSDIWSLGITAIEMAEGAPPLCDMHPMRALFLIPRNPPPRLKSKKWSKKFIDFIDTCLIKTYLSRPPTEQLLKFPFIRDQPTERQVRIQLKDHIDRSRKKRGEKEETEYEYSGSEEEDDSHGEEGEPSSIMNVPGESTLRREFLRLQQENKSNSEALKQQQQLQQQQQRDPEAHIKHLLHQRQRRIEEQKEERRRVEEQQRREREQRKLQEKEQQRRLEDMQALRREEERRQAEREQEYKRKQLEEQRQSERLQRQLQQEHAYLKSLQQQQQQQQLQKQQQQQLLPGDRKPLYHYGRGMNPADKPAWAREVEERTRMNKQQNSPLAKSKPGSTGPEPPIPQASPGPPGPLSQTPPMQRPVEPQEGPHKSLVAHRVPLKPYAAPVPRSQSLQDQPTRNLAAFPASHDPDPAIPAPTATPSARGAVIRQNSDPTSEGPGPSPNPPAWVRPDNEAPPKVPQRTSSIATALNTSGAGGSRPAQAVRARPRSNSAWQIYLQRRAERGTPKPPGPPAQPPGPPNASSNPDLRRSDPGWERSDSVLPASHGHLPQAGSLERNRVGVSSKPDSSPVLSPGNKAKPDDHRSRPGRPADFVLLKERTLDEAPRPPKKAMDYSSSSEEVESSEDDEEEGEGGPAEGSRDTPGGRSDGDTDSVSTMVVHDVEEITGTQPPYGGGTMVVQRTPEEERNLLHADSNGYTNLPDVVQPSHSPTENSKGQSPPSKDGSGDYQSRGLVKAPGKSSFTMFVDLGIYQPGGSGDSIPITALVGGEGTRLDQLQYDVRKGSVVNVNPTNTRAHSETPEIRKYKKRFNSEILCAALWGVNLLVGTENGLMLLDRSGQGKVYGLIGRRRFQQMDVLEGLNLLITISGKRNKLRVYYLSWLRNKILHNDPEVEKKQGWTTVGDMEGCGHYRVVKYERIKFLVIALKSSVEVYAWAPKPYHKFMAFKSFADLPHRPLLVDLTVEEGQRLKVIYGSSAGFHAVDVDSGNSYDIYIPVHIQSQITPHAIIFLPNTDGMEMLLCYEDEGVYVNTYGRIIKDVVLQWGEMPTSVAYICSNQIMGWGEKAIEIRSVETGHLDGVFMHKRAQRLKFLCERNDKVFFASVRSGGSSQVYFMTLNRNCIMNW
Sequence of UniProt P10721 (whole entry, unmodified, looked up): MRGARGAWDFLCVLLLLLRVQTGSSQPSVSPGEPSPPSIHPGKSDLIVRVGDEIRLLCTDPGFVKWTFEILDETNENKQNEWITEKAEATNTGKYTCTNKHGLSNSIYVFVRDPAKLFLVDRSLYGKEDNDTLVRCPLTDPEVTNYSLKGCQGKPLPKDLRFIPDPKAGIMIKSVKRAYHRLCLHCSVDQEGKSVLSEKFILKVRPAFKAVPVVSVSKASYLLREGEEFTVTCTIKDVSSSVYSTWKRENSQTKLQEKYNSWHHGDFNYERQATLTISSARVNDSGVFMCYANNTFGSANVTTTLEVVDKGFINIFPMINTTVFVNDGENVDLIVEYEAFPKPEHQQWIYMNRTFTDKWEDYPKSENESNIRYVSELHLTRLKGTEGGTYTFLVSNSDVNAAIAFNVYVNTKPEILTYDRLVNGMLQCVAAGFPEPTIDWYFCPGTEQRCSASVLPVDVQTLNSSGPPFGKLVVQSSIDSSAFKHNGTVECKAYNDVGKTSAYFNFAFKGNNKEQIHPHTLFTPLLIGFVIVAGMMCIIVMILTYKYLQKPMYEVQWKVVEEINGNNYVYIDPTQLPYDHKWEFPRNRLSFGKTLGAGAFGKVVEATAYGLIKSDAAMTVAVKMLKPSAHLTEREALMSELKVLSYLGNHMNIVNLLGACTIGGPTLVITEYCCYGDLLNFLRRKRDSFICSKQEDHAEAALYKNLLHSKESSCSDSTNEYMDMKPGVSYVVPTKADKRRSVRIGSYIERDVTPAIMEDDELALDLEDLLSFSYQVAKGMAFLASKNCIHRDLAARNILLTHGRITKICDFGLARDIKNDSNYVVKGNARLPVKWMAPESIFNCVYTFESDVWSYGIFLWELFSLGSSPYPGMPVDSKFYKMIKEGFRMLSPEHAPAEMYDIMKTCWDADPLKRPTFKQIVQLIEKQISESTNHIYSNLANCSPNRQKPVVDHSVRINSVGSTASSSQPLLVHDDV

Sample 1 — host: mouse; sample: microsomes or S9; concentration: 2 µM; time: 0.5 h
SMILES	remaining compound
O=C(NC1CCCC1)N1Cc2c(sc3c2CCCC3)-n2cccc2C1c1cccc(F)c1 (centres unmarked)	< 1%
Cn1ncc2c(NCc3cc4ccccc4[nH]3)nc(-c3ccccn3)nc21	6.5%
O=C(c1ccc2c(c1)N(Cc1ccc(Cl)cc1)C(=O)c1ccccc1[S+]2[O-])N1CCN(c2ccccn2)CC1 (centres unmarked)	0.712%
CC1CN(C2c3ccccc3-c3ccccc32)CC(C)(C)O1 (centres unmarked)	1.51%
Nc1ncnc2c1ncn2C/C=C/CN1CCN(Cc2ccccc2)CC1	87.7%
CC(C)n1c(N2CCCN(C(=O)c3cc4cc(Cl)ccc4[nH]3)CC2)cc(=O)n(C(C)C)c1=O	7.52%
CCC(CC)CN(CC(=O)OC)S(=O)(=O)c1ccc(S(C)(=O)=O)cc1	99.9%

Sample 2 — SMILES: Oc1ccc(Nc2nc(-c3ccc(Cl)cc3)cs2)cc1; observed: enzyme activity; action: inhibitor; concentration: 0.5 µM; reference: control
target	remaining activity [%]
TLK2 (Homo sapiens, UniProt Q86UE8)	121
MET (Homo sapiens, UniProt P08581)	99.4
MARK2 (Homo sapiens, UniProt Q7KZI7)	102
PNCK (Homo sapiens, UniProt Q6P2M8)	100
GRK4 (Homo sapiens, UniProt P32298)	90.5
MAP2K1 (Homo sapiens, UniProt Q02750)	90.7
RPS6KA4 (Homo sapiens, UniProt O75676)	91.5
ROCK1 (Homo sapiens, UniProt Q13464)	103
CDC42BPB (Homo sapiens, UniProt Q9Y5S2)	108
CLK3 (Homo sapiens, UniProt P49761)	92.6
NEK3 (Homo sapiens, UniProt P51956)	98.4
PLK3 (Homo sapiens, UniProt Q9H4B4)	97.4
PAK3 (Homo sapiens, UniProt O75914)	124
MINK1 (Homo sapiens, UniProt Q8N4C8)	103

Sample 3 — observed: kinase activity
SMILES: COc1cc(C(=O)N2CCC(N3CCN(C)CC3)CC2)ccc1Nc1ncc2c(n1)N(C)c1ccccc1C(=O)N2C
target	concentration	remaining activity
SRPK1	10 µM	110 ± 11%
MSK1	10 µM	84 ± 6%
CK2	1 µM	71 ± 6%
PIM2	1 µM	87 ± 2%
RIPK2	1 µM	103 ± 4%
IGF-1R	1 µM	107 ± 1%

Sample 4 — observed: cell-free assay; method: competition with immobilised ligand; concentration: 1 µM
SMILES: CCc1ccccc1C(=O)Nc1n[nH]c2c(C)c(F)c(C3C(C#N)=C(C)N(C)C(C)=C3C#N)cc12
target	remaining binding
Ribosomal protein S6 kinase alpha-2, C-terminal kinase domain (RPS6KA2, Homo sapiens, UniProt Q15349)	100%
SRPK2 (Homo sapiens, UniProt P78362)	100%
TAOK1 (Homo sapiens, UniProt Q7L7X3)	100%
MET (Homo sapiens, UniProt P08581)	7.3%
KIT (Homo sapiens, UniProt P10721, A829P)	100%
EGFR (Homo sapiens, UniProt P00533, G719S)	61%
EGFR (Homo sapiens, UniProt P00533, del752-759)	52%
BMX (Homo sapiens, UniProt P51813)	96%

Repeated from above (sample 2):
target	remaining activity [%]
MARK2 (Homo sapiens, UniProt Q7KZI7)	102
PNCK (Homo sapiens, UniProt Q6P2M8)	100
MAP2K1 (Homo sapiens, UniProt Q02750)	90.7
ROCK1 (Homo sapiens, UniProt Q13464)	103
